Experimental data from different studies.
Every numbered part comes from another study and shows a few of its results, in no order. Values joined by “and” are separate records of one study, mostly repeats; a detail may differ. Substitutions count along the parent as printed.

Sample 1
Compound: COc1cc(C(=O)OCCCN2CCCN(CCCOC(=O)c3cc(OC)c(OC)c(OC)c3)CC2)cc(OC)c1OC
Species: male CD-1 mouse
Route: subcutaneous
Dose: dose not given
| medium | time | tissue concentration |
| --- | --- | --- |
| dorsal root ganglia | 12 h | 4.12 ng/mL |
| dorsal root ganglia | 0.5 h | 481 ng/mL |
| trigeminal ganglion | 0.5 h | 287 ng/mL |
| dorsal root ganglia | 4.5 h | 33.7 ng/mL |

Sample 2
Target: Sodium-dependent dopamine transporter (SLC6A3, Homo sapiens, UniProt Q01959)
Chain of UniProt Q01959 (whole entry, looked up): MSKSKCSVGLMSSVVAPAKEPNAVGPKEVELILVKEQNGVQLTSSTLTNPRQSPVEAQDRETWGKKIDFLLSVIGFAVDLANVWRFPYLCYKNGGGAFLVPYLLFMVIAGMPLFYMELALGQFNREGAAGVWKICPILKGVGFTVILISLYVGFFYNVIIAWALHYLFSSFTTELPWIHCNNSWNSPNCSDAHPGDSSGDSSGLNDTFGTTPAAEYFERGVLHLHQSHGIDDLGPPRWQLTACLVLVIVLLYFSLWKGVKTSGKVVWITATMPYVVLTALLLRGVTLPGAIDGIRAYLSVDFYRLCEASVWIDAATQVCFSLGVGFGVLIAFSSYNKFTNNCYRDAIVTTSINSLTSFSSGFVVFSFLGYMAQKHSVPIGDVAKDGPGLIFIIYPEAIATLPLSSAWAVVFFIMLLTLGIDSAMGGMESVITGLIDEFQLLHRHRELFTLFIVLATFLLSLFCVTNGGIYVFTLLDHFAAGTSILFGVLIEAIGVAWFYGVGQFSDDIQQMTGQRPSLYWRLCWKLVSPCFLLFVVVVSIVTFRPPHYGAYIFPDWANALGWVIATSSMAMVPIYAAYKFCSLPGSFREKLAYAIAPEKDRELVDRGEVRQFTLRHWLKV
Observed: cell-free assay
Tested at: 10 µM
| Compound | inhibition [%] |
| --- | --- |
| O=C(N[C@H]1CCCCC/C=C\C2C[C@@]2(C(=O)O)NC(=O)[C@@H]2C[C@@H](Oc3ccncc3)CN2C1=O)OC1CCCC1 (stereo partly shown) | -13 |
| O=C(NNS(=O)(=O)c1ccccc1F)c1cc(F)cc(-c2ccccn2)c1 | -27.1 |
| COc1ccc2cc(OCC3(C(=O)O)CN(C(=O)c4ccc(F)cc4)C3)ccc2c1 | -14.5 |
| Cc1ncc(-c2cc(Cl)ccc2F)cc1-n1c(=O)n(CC(N)=O)c2ccccc21 | -4.34 |
| NC(=O)c1ccc2nc(-c3ccc(C4(N)CCC4)cc3)c(-c3ccccc3)n2n1 | 40 |
| O=C(NNS(=O)(=O)c1ccccc1)c1cc(-c2ccnnc2)ccc1F | 80.2 |
| Nc1cnc(N2CCc3cc(S(=O)(=O)Nc4c(F)cc(Cl)cc4F)cc(N4CCCC4=O)c32)nc1 | 20.2 |
| c1ccc(N2CCN(Cc3nc4ccccc4[nH]3)CC2)nc1 | -2.13 |
| CO[C@H]1CC[C@H](CNc2ccc(S(=O)(=O)NC(=O)c3ccc(N4CCN(CC5=C(c6ccc(Cl)cc6)CC(C)(C)CC5)CC4)cc3Oc3cnc4[nH]ccc4c3)cc2[N+](=O)[O-])CC1 | -13.1 |
| N#Cc1ccc(Nc2ccc3[nH]c(=O)[nH]c3c2)c(Cl)c1 | 14 |
| CN(C)C(=O)Cn1cc(-c2nc(C3(c4ccc(-c5cnc(N)nc5)cc4)CC3)no2)cn1 | 52.4 |
| O=c1nc(-c2ccccn2)sc2ccccc12 | -3.83 |
| CC(=O)Nc1ncc(CN2CCC[C@H](Cc3cc(C)nc(C)c3)C2)s1 | 13.4 |
| C[C@H](c1ccc(F)cc1)N(Cc1cccc(C(=O)O)c1)C(=O)c1cnc2ccccc2c1 | -18.8 |

Sample 3
Substance: merbromin
Action: inhibitor
POLQ helicase domain: DNA polymerase theta, helicase domain (POLQ, Homo sapiens, UniProt O75417)
Chain of UniProt O75417 (whole entry, unmodified, looked up): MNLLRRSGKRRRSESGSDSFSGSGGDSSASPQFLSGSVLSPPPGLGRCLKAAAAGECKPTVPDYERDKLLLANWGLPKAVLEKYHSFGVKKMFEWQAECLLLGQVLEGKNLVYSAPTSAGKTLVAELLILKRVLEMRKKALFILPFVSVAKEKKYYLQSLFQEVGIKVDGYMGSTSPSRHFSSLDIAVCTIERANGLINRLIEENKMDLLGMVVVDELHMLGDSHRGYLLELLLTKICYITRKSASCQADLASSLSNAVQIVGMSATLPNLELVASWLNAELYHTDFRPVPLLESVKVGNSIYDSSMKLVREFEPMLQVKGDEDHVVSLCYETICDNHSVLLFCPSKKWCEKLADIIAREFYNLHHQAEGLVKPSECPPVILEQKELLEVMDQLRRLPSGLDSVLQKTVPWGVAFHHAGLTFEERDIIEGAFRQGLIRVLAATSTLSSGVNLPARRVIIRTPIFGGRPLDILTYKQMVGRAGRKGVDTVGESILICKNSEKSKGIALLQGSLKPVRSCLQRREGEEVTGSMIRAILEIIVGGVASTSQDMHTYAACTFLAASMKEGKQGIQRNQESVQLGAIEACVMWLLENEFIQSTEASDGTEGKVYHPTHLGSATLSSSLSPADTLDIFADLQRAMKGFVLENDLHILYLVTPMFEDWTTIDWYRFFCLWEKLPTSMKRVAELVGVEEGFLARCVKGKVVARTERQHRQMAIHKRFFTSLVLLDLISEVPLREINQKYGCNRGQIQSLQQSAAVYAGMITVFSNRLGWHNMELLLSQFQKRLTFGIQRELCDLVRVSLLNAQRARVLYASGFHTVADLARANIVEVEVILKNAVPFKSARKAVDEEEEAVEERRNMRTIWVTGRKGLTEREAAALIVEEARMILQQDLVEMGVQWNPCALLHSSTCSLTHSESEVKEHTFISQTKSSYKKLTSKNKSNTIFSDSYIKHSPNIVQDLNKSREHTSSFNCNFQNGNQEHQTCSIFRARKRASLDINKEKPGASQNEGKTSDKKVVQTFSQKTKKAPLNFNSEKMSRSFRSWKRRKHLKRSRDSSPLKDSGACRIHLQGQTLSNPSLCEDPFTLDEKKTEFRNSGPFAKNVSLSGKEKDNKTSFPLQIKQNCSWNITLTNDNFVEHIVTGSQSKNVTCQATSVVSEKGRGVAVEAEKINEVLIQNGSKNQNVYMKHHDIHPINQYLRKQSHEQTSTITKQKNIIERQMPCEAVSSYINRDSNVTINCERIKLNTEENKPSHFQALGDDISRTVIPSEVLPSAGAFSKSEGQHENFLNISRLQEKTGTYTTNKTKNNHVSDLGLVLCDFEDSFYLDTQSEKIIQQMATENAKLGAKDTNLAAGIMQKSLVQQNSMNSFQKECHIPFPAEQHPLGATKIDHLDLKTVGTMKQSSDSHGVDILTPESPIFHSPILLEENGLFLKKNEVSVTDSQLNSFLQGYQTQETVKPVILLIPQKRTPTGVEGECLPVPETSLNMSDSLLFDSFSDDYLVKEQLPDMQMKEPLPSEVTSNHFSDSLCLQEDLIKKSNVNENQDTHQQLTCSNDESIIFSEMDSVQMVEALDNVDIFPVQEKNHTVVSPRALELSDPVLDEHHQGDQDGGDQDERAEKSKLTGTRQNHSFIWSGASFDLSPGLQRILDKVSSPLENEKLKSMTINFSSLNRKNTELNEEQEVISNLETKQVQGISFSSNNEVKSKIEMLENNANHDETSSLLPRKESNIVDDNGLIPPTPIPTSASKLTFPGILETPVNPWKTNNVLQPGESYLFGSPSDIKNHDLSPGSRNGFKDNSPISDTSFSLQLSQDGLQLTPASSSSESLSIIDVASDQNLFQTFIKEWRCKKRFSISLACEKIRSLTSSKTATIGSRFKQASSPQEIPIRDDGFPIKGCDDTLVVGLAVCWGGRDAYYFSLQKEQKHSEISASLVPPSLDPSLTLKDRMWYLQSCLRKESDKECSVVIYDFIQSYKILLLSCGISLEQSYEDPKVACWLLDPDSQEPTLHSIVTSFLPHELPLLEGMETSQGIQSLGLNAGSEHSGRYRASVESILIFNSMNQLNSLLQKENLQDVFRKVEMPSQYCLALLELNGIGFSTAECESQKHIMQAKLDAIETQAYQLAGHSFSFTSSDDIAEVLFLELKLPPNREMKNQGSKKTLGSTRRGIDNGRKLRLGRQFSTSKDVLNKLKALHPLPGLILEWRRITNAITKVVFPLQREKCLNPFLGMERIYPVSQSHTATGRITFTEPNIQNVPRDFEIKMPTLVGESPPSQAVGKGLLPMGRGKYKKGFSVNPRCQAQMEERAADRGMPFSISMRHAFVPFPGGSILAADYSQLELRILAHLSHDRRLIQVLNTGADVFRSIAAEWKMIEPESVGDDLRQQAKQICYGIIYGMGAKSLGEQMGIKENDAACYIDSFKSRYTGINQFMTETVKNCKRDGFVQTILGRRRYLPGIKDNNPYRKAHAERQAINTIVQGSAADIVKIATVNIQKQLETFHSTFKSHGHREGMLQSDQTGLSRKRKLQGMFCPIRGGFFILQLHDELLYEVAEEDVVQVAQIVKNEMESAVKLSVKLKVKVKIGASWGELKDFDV
| target | observed | technique | tested at | notes | remaining activity |
| --- | --- | --- | --- | --- | --- |
| POLQ helicase domain | ATPase activity |  | concentration not given | without ssDNA | 37.1% and 36.2% |
| DNA polymerase theta, ATPase domain (POLQ, Homo sapiens, UniProt O75417) | ATPase activity | ADP-Glo | 77 µM |  | 11.7% |
| POLQ helicase domain | enzyme activity |  | concentration not given | without ssDNA | 36.6% |

Further values, each from its own experiment
P1: peptide; VAYPNSYMPKYQIST; partner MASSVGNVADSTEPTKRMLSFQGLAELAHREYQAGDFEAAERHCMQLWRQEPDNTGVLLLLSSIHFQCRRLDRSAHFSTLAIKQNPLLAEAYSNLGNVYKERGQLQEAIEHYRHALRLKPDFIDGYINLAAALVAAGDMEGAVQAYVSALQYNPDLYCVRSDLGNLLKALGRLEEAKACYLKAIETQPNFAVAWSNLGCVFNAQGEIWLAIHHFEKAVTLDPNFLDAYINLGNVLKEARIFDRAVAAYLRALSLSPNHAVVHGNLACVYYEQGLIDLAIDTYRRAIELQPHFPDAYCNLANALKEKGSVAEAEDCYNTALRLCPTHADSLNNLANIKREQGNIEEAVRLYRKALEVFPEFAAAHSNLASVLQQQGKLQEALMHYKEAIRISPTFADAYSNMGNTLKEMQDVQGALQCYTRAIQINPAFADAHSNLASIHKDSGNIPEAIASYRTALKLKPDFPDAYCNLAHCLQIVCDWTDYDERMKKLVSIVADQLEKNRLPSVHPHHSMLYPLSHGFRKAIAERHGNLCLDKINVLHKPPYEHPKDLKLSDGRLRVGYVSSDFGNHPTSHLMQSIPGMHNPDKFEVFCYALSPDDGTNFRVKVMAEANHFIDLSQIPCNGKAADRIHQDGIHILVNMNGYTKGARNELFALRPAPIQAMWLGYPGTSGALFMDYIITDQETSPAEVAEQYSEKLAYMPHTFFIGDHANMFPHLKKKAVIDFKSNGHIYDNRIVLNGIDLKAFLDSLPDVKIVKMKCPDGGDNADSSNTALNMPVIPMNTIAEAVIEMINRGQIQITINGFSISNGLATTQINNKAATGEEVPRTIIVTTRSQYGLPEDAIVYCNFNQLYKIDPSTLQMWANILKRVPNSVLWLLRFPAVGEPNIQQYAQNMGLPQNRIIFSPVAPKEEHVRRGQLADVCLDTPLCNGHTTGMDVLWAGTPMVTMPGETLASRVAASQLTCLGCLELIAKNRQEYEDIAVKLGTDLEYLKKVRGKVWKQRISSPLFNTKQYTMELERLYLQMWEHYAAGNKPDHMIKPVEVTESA
| Substance | target or system | assay | system | conditions | scale | quantity | value |
| --- | --- | --- | --- | --- | --- | --- | --- |
| O=C1CC[C@@]2(O)[C@H]3Cc4ccc(O)c5c4[C@@]2(CCN3CC2CC2)[C@H]1O5 | HaCaT |  |  | 100 µM, 36 h |  | viability | 96% |
| CCC1(c2cccc(O)c2)CCCCN(C)C1 (stereo not shown) | mouse MPNST tumor cells | high-content nuclear imaging, measured: cell number |  | 10 µM, 12 h, mean of 2 replicates | relative to: plate mean, higher = more cells | nuclei count | 1.69 z-score and 1.67 z-score |
| Clc1ccc(C(OCCN2CCCCC2)c2ccccc2)cc1 (stereo not shown) | HaCaT |  |  | 100 µM, 36 h |  | viability | 4.61% |
| CCC1(C)CC(=O)NC(=O)C1 | mouse MPNST tumor cells | high-content nuclear imaging, measured: cell number |  | 10 µM, 12 h, mean of 2 replicates | relative to: plate mean, higher = more cells | nuclei count | 1.98 z-score |
| O=c1c2ccccc2nc(-c2ccccc2)n1-c1ccncc1 |  |  | mouse, microsomes or S9 | 2 µM, 0.5 h |  | remaining compound | 98% |
| P1 K10S | OGT, full length, His-tagged (human) | phage display, sequencing | in vitro | 1 µg OGT, single substitutions, 15-mer displayed peptide, unchanged parent 6.14 | relative to: input library, higher = stronger binding | fold enrichment | 1 fold |
| NCCc1cn(S(=O)(=O)c2c(Cl)nc3sccn23)c2ccccc12 | mouse MPNST tumor cells | high-content nuclear imaging, measured: cell number |  | 10 µM, 12 h, mean of 2 replicates | relative to: plate mean, higher = more cells | nuclei count | -6.12 z-score |

Some of these lines once more (sample 2):
| Compound | inhibition [%] |
| --- | --- |
| O=C(NNS(=O)(=O)c1ccccc1)c1cc(-c2ccnnc2)ccc1F | 80.2 |
| Nc1cnc(N2CCc3cc(S(=O)(=O)Nc4c(F)cc(Cl)cc4F)cc(N4CCCC4=O)c32)nc1 | 20.2 |
| c1ccc(N2CCN(Cc3nc4ccccc4[nH]3)CC2)nc1 | -2.13 |
| CO[C@H]1CC[C@H](CNc2ccc(S(=O)(=O)NC(=O)c3ccc(N4CCN(CC5=C(c6ccc(Cl)cc6)CC(C)(C)CC5)CC4)cc3Oc3cnc4[nH]ccc4c3)cc2[N+](=O)[O-])CC1 | -13.1 |
